Experimental data pooled from the literature.
Each line is one published result; not all experiments were run side by side.

NC(=O)CC[C@H](N)C(=O)O — uptake half-time (Bacillus subtilis; NCIB3610, MOPS medium; 1 mM, 1 mM equimolar amino acid mixture): 10.1 h
N#C[C@@]1(c2ccc3c(N)ncnn23)O[C@H](COC(=O)C2CCC(F)CC2)[C@@H](O)[C@H]1O (stereo partly drawn) — selectivity index (human respiratory syncytial virus; viral replication, viral protein ELISA; HEp-2, A2; 5 days; baseline: CC50 over EC50): 111
Nc1nc2c(ncn2COCCO)c(=O)[nH]1 — therapeutic index (Herpes simplex virus 2; HeLa, 333; baseline: CC50 over IC50): > 100
N=C(N)NCCC[C@H](N)C(=O)O — uptake half-time (Bacillus subtilis; 168, S7 medium; 1 mM, equimolar amino acid mixture): 4.8 h
CC(C)C(=O)OC[C@H]1O[C@@](C#N)(c2ccc3c(N)ncnn23)[C@H](O)[C@@H]1O — selectivity index (human respiratory syncytial virus; viral replication, viral protein ELISA; HEp-2, A2; 5 days; baseline: CC50 over EC50): 148
Cc1cc(N)c2c(OCC(C)(C)C(=O)NC(C)C)cccc2n1 — mean revertant colonies (Salmonella typhimurium; reverse mutation, plate incorporation; TA98; 10 µg/plate, with rat liver S9): 29 colonies/plate
NC(=O)C[C@H](N)C(=O)O — uptake half-time (Bacillus subtilis; 168, S7 medium; 1 mM, equimolar amino acid mixture): 4.1 h
Cc1cc(Nc2ccc(S(F)(F)(F)(F)F)cc2)n2nc(C(C)(F)F)nc2n1 — patients with QTcF above threshold (Plasmodium falciparum; 12-lead Holter ECG; human malaria patients; oral, 250 mg, QTc above 450 ms): 11.1%
CC[C@@H](C)[C@@H](N)C(=O)OC[C@H]1O[C@@](C#N)(c2ccc3c(N)ncnn23)[C@H](O)[C@@H]1O — selectivity index (human respiratory syncytial virus; viral replication, viral protein ELISA; HEp-2, A2; 5 days; baseline: CC50 over EC50): > 59.2
